# Results from different studies.
# Protocols differ between the studies behind these lines. ± marks the error that the study gave.
# Oprd1: Delta-type opioid receptor (Oprd1, Rattus norvegicus, UniProt P33533)
# CPL: CPL (Toxoplasma gondii, UniProt Q6DMN0)
SMILES,target,test,system,conditions,scale,quantity,result
CCN(Cc1ccccc1)C(=O)CCc1nc(CN2CCN(C(=O)Cc3ccc(OC)c(OC)c3)CC2)no1,"KCNQ4 (Homo sapiens, UniProt P56696)","potassium current, whole-cell patch clamp","CHO, stable",300 nM,,activation V1/2,-31.8 ± 1.13 mV
CC(C)OC(=O)c1ccc(OC(=O)C2CCNCC2)cc1,"clpP (Staphylococcus aureus, UniProt Q2G036)","enzyme activity, inhibitor",,,,inhibitory concentration,< 1 µM
"COC(=O)C1C(OC(c2ccc(Cl)cc2)c2ccc(Cl)cc2)CC2CCC1N2C (single isomer, unassigned)","Adra1b (Rattus norvegicus, UniProt P15823)","binding, radioligand displacement",rat liver,"inactive if below 75% at 10000 nM, together with: [3H]prazosin",,Ki,inactive
CC(C)(CO)NCc1ccc(-c2cc(Cl)cc(Cl)c2)o1,"DRD3 (Homo sapiens, UniProt P35462)",radioligand competition binding,,,,ligand efficiency,0.49
CCCCc1cc(Cc2ccccc2)cc2c1NCCC2NC(=O)C(N)Cc1c(C)cc(O)cc1C (stereo not shown),Oprd1,"GTPγS binding, agonist",C6 cells expressing DOR,,relative to: DPDPE at 10 µM,maximal stimulation,25%
CC(C)C[C@H](NC(=O)[C@H](CCC(=O)O)NC(=O)[C@H](C)NC(=O)[C@H](CCC(=O)O)NC(=O)[C@H](CCC(=O)O)NC(=O)[C@H](Cc1c[nH]cn1)NC(=O)[C@H](CCCNC(=N)N)NC(=O)[C@H](CCC(=O)O)NC(=O)[C@H](CC(N)=O)NC(=O)[C@H](CCCCN)NC(=O)[C@H](CC(C)C)NC(=O)[C@H](CCCNC(=N)N)NC(=O)[C@H](CCC(N)=O)NC(=O)[C@H](CC(C)C)NC(=O)[C@H](CCC(N)=O)NC(=O)[C@H](C)NC(=O)[C@H](CC(N)=O)NC(=O)[C@H](C)NC(=O)[C@@H](NC(=O)[C@H](CC(C)C)NC(=O)[C@H](CCCCN)NC(=O)[C@H](CCC(=O)O)NC(=O)[C@@H](NC(=O)[C@H](CO)NC(=O)CN)C(C)C)[C@@H](C)O)C(=O)N[C@@H](CCC(=O)O)C(=O)N[C@@H](CCCNC(=N)N)C(=O)N[C@@H](CC(C)C)C(=O)N[C@@H](CCCCN)C(=O)N[C@@H](CO)C(=O)N[C@@H](CCC(=O)O)C(=O)N[C@@H](Cc1ccc(O)cc1)C(=O)O,"Plasminogen (PLG, Homo sapiens, UniProt P00747, C188G/E240D/L256Y)","binding, SPR",,pH 7.4,,kon,50400 M⁻¹ s⁻¹
CC[C@H](C)[C@H](NC(=O)[C@H](Cc1c[nH]cn1)NC(=O)[C@H](CCCCNC(=O)[C@@H](NC(=O)[C@H](CCCCN)NC(=O)[C@H](Cc1ccccc1)NC(=O)[C@H](CCCCNC(=O)[C@H](CC(C)C)NC(=O)[C@@H]1CCCN1C(=O)[C@H](CCCCN)NC(=O)C[C@@H]1O[C@@H](C)[C@@H](O)[C@@H](O)[C@@H]1O)NC(=O)[C@H](CC(C)C)NC(=O)[C@@H]1CCCN1C(=O)[C@H](CCCCN)NC(=O)C[C@@H]1O[C@@H](C)[C@@H](O)[C@@H](O)[C@@H]1O)[C@@H](C)CC)NC(=O)[C@@H](NC(=O)[C@H](CCCCN)NC(=O)[C@H](Cc1ccccc1)NC(=O)[C@H](CCCCNC(=O)[C@H](CC(C)C)NC(=O)[C@@H]1CCCN1C(=O)[C@H](CCCCN)NC(=O)C[C@@H]1O[C@@H](C)[C@@H](O)[C@@H](O)[C@@H]1O)NC(=O)[C@H](CC(C)C)NC(=O)[C@@H]1CCCN1C(=O)[C@H](CCCCN)NC(=O)C[C@@H]1O[C@@H](C)[C@@H](O)[C@@H](O)[C@@H]1O)[C@@H](C)CC)C(N)=O,"lecB (Pseudomonas aeruginosa, UniProt Q9HYN5)","binding, isothermal titration calorimetry",,divided by fucoside copies,relative to: monovalent fucoside KD over ligand KD,relative potency per fucoside,2.9
N#Cc1nc(N2CCOCC2)nc(N(CCC2CCNCC2)Cc2ccc(F)cc2)n1,CPL,"enzyme activity, inhibitor",,,relative to: human over Toxoplasma IC50,selectivity ratio,2.9
CC(=O)NCC(=O)NCC(=O)N[C@@H](CCCCNP(=O)(O)O)C(=O)NCC(=O)NCC(N)=O,"Phospholysine phosphohistidine inorganic pyrophosphate phosphatase (LHPP, Homo sapiens, UniProt Q9H008)",enzyme activity,,"concentration not given, 90 min, pH 7.8, together with: substrate 100 µM",,substrate hydrolysis,37.9%
CC(C)C[C@@H]1NC(=O)[C@H](CCCNC(=N)N)NC(=O)[C@H](CCCCN)NC(=O)[C@H](CC(=O)O)NC(=O)[C@H](C)NC(=O)[C@@H](CO)NC1=O,"Disintegrin and metalloproteinase domain-containing protein 8 (Homo sapiens, UniProt P78325)",ADAM8 dimerisation,PANC-1,500 nM,,FRET/FLIM efficiency,no effect
NC(=O)Cc1cc(=O)oc2cc(NC(=O)[C@@H](N)CCC3CCCCC3)ccc12,"Aminopeptidase N (Neisseria meningitidis, UniProt Q9JYV4)","enzyme activity, substrate",,"pH 7.5, 37 °C",,Km,41.4 ± 1.3 µM
CCOC(=O)c1cc(Cc2ccccc2)cc2c1NCCC2NC(=O)C(N)Cc1c(C)cc(O)cc1C (stereo not shown),Oprd1,"GTPγS binding, antagonist",,together with: SNC80,,Ke,42.5 nM
C[C@@H]1Oc2c(c(=O)oc3c2ccc2ccccc23)[C@@H]1C,"SYK (Homo sapiens, UniProt P43405)","enzyme activity, inhibitor, ADP-Glo",,5 µM,,remaining activity,72 ± 2%
Cc1ncsc1-c1ccc([C@H](C)NC(=O)[C@@H]2C[C@@H](O)CN2C(=O)[C@@H](NC(=O)CN2CCC(CN3CCN(CCC(=O)N4CCN(c5ncc(-c6cc(NC(=O)c7ccc(F)cc7C(F)(F)F)c(N7C[C@@H](C)N(C)[C@@H](C)C7)cc6F)cn5)CC4)CC3)CC2)C(C)(C)C)cc1,"WD repeat protein WDS (Spodoptera frugiperda, UniProt A0A2H1VC02)","degrader, targeted LC-MS",Sf9,"10 µM, 24 h",,degradation,64 to 67%
CC(=O)NC(Cc1ccc(Br)c(Cl)c1)C(=O)N[C@@H](C)C(=O)N1CCC[C@H]1C(=O)N1CCC[C@H]1C(=O)N[C@@H](CCC(=O)O)C(=O)N[C@@H](Cc1c[nH]cn1)C(=O)N[C@@H](CO)C(=O)N[C@H](C(=O)N[C@@H](C)C(N)=O)[C@@H](C)OP(=O)(O)O (stereo partly shown),"CLK1 (Homo sapiens, UniProt P49759)","enzyme activity, inhibitor",,10 µM,,inhibition,0.54%
CS(C)(=O)=Nc1ccc(-c2ccc(-c3nc4cc(O[C@@H]5CO[C@H]6[C@@H]5OC[C@H]6O)[nH]c4cc3F)cc2)cc1,"PRKAB2/PRKAA1, with gamma3 subunit (Homo sapiens, UniProt O43741+Q13131)","enzyme activity, activator",,"60 min, 50% above basal activity, together with: ATP 50 µM",,EC150,0.95 nM
CC[C@H](C)[C@H](NC(=O)[C@H](CC(N)=O)NC(=O)[C@H](CC(N)=O)NC(=O)[C@@H](N)CCCNC(N)=O)C(=O)N1C[C@@H](n2cc([C]34[CH]5[CH]6[CH]7[CH]3[Fe]6754389%10[CH]4[CH]3[CH]8[CH]9[CH]4%10)nn2)C[C@H]1C(=O)N[C@@H](Cc1c[nH]c2ccccc12)C(=O)N[C@@H](CO)C(N)=O (stereo partly shown),"env (Human immunodeficiency virus type 1 group M subtype B, UniProt P35961)",ITC,,"concentration not given, pH 7.4, 25 °C",,binding enthalpy,-14.1 ± 0.6 kcal/mol
N[C@@H](Cc1ccc(C(=O)NCCc2cccc3ccccc23)cc1)C(=O)N1Cc2ccccc2C[C@H]1C(=O)N[C@@H](Cc1ccccc1)C(=O)N[C@@H](Cc1ccccc1)C(=O)O,Oprd1,"binding, [3H]DSLET displacement",rat brain membranes,,relative to: DPDPE,relative affinity,5 to 8 fold
CC(C)CCN(Cc1ccccc1C#N)c1nc(C#N)nc(N2CCOCC2)n1,CPL,"enzyme activity, inhibitor",,,relative to: human over Toxoplasma IC50,selectivity ratio,0.5
Nc1nc2c([C@@H]3O[C@@H]4COP(=O)(O)O[C@H]5[C@@H](O)[C@H](c6snc7c(=O)[nH]c(N)nc67)O[C@@H]5COP(=O)(O)O[C@H]4[C@H]3O)snc2c(=O)[nH]1,"rocR (Pseudomonas aeruginosa, UniProt Q9HX69)","substrate, HPLC",,"10 µM, together with: 100 nM enzyme",,association rate constant k1,43000 ± 20000 M⁻¹ s⁻¹
CCCCCCn1c2ccccc2c2cc(C(=O)c3cccc4ccccc34)ccc21,"CNR1 (Homo sapiens, UniProt P21554)","GTPγS binding, agonist",,cell membranes,,Emax,82.2%
CN(C)c1ccc(C(=O)N2CCN3C(=O)N(OC(=O)N4CCC(CCc5ccc(Cl)cc5)CC4)C(=O)C3C2)cc1 (stereo not shown),"Androgen-induced gene 1 protein (Homo sapiens, UniProt Q9NVV5)",inhibitor,LNCaP,concentration not given,,probe labelling,inhibited

# A few entries again:
SMILES,target,test,system,conditions,scale,quantity,result
N[C@@H](Cc1ccc(C(=O)NCCc2cccc3ccccc23)cc1)C(=O)N1Cc2ccccc2C[C@H]1C(=O)N[C@@H](Cc1ccccc1)C(=O)N[C@@H](Cc1ccccc1)C(=O)O,Oprd1,"binding, [3H]DSLET displacement",rat brain membranes,,relative to: DPDPE,relative affinity,5 to 8 fold
CS(C)(=O)=Nc1ccc(-c2ccc(-c3nc4cc(O[C@@H]5CO[C@H]6[C@@H]5OC[C@H]6O)[nH]c4cc3F)cc2)cc1,"PRKAB2/PRKAA1, with gamma3 subunit (Homo sapiens, UniProt O43741+Q13131)","enzyme activity, activator",,"60 min, 50% above basal activity, together with: ATP 50 µM",,EC150,0.95 nM
Nc1nc2c([C@@H]3O[C@@H]4COP(=O)(O)O[C@H]5[C@@H](O)[C@H](c6snc7c(=O)[nH]c(N)nc67)O[C@@H]5COP(=O)(O)O[C@H]4[C@H]3O)snc2c(=O)[nH]1,"rocR (Pseudomonas aeruginosa, UniProt Q9HX69)","substrate, HPLC",,"10 µM, together with: 100 nM enzyme",,association rate constant k1,43000 ± 20000 M⁻¹ s⁻¹
